# Experimental data gathered from unrelated publications.
# Each numbered part is a random draw from the data of one study; scales do not carry over between parts. Substitutions count along the parent as printed.

# Set 1
# Target: Prothrombin, mature alpha-thrombin (F2, Homo sapiens, UniProt P00734)
# Technique: aptamer microarray, sandwich
# Molecule type: DNA with 2'F-ANA
# Matrix: in vitro
# Tested at: 200 nM
# Setting: whole 15-mer aptamer, many near background
# Added: Cy3 exosite-II aptamer, 400 nM
# Reading: higher = stronger binding
# Oligonucleotide: GGTTGGTGTGGTTGG
Modification,mean fluorescence intensity
2'F-ANA at 1 3 5 11 13 14 15,43.3 a.u.
2'F-ANA at 1 2 3 4 5 8 10 11 13,48.2 a.u.
2'F-ANA at 4 5 7 8 10 14,48.8 a.u.
2'F-ANA at 1 2 4 5 9 10 11 13,47.9 a.u.
2'F-ANA at 1 3 4 6 7 12 14,110 a.u.

# Set 2
# Target: CCNB3, cyclin fold, Cln2 fusion (human)
# Technique: yeast growth competition, sequencing
# Matrix: yeast
# Setting: weak parent motif
# Reference: not given
# Reading: higher = stronger binding
# Parent: ORC1 docking peptide (human); PRARKRLELGNLG
Change,normalised enrichment score
R4I,-0.0502
R6I,0.559
G10M,0.36
E8K,-0.0623
P1Q,0.43

# Set 3
# Target: Sal-like protein 4, full length isoform A (SALL4, Homo sapiens, UniProt Q9UJQ4, residues 1-1053)
# UniProt Q9UJQ4, sequence (whole entry, looked up): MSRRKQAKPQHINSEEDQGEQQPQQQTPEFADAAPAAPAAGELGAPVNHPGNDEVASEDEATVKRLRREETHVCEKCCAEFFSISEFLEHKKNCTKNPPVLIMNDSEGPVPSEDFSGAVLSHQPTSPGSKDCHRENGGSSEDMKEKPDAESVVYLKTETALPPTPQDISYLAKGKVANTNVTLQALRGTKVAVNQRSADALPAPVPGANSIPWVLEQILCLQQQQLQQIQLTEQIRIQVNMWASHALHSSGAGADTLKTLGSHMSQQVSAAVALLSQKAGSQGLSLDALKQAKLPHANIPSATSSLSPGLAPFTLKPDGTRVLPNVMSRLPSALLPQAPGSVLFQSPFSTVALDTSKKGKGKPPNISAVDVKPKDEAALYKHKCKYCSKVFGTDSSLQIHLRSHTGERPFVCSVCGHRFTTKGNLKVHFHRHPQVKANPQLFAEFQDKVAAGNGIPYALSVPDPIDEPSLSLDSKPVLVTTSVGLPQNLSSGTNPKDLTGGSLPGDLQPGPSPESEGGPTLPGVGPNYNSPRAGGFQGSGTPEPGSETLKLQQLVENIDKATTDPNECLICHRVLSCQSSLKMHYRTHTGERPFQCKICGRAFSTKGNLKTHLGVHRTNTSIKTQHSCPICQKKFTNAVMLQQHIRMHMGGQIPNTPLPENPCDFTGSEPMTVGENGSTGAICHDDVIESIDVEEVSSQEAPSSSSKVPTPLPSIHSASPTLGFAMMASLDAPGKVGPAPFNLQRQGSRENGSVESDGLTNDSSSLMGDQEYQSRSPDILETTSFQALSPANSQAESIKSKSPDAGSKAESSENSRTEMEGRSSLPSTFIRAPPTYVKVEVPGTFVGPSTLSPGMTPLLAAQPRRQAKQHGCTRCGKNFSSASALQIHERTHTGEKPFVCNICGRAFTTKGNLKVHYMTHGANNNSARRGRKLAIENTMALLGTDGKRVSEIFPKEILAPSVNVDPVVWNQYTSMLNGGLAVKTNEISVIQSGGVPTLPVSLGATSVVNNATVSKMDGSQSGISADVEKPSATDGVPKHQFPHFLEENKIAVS
# Technique: universal PBM
# Molecule type: double-stranded DNA, one strand shown
# Matrix: in vitro
# Tested at: 600 nM
# Setting: 8-mer, flanks averaged, mean of replicates
# Reading: higher = stronger binding
Oligonucleotide,E-score
GGACTCAA,-0.217
GATCCACA,0.0559
CCAGGAAG,-0.202
ATCTTTGC,0.084
CAACTCAA,0.138

# Mixed results
Molecule,target,assay,test system,setting,how to read,endpoint,value
"PhoQ, residues 284 288 289 292 302 303 SSCCRF","PhoP, residues 12 14 15 18 19 VHSCL (Escherichia coli, UniProt P23836)","Sort-seq, refers to: YFP reporter",E. coli,"PhoQ-PhoP variant library, added: 10 µM Mg2+","reference: high Mg2+ state, higher = stronger signaling",fold induction,8.61

# A few entries again (set 2):
Change,normalised enrichment score
E8K,-0.0623
